Results from different studies.
Compare with care: the assays were run in different laboratories. Values joined by “and” are separate records of one study, mostly repeats; a detail may differ. ± gives the spread as reported. Converted amounts (≈) assume the structure as drawn.

SMILES | organism | test | test system | setting | scale | endpoint | value
CCCCc1ccc(CNc2nc(N(C)C)nc(N(C)C)c2/N=N/c2ccc(Cl)cc2)cc1 | Ostrinia furnacalis | leaf dipping | – | 200 mg/L, 96 h | – | mortality | 93.3 ± 5.8%
N#Cc1c(NC(=O)c2cccc3ccccc23)sc2c1CCCC2 | human coronavirus OC43 | virus-induced cell killing | MRC-5 | maximum over 10 doses | – | maximum inhibition | 0%
Cc1c2c(nn1C)CSCc1cc(n(C)n1)CSc1cc(c3ccccc3c1)OCCCc1c(C(=O)O)n(C)c3c-2c(Cl)ccc13 | Staphylococcus aureus | label-free quantitative proteomics, measured: SAOUHSC_01832 protein | SA113 | concentration not given | relative to: untreated control | log2 fold change | 7.09
COc1ccc2c(ccc3oc([N+](=O)[O-])c(C)c32)c1 | Mycobacteroides abscessus | REMA | ATCC 19977 | – | – | MIC90 | > 32 µg/mL
CN1CC(O)=C(C(=O)NC(C(=O)NC2C(=O)N3C2SC(C)(C)C3C(=O)O)c2ccccc2)C1=O (centres unmarked) | Escherichia coli | – | ΔtolC JW5503-1 | 200 µM, together with: 30 µg/mL 2,2'-bipyridyl | – | zone of inhibition | 15.3 mm
COc1c([N+](=O)[O-])oc2ccc3ccccc3c12 | Mycobacteroides abscessus | REMA | ATCC 19977 | – | – | MIC90 | > 32 µg/mL
COC(=O)[C@@H]1[C@@H](c2ccccc2)[C@]2(c3ccc(OC)cc3)Oc3cc(OC)cc(OC)c3[C@@]23N=C(C)N[C@@]13O | Hepatitis E virus | viral replication | HepG2 HEV-3 replicon, genotype 3 | 24 h | – | EC50 | 0.00245 µM
N[C@@H]1CCCN(c2c(/C=C3\SC(=O)NC3=O)cccc2-c2ccccc2)C1 | human coronavirus OC43 | virus-induced cell killing | MRC-5 | screen | – | maximum inhibition | 2.64%
CCC[C@@H]1C[C@@H](C(=O)N[C@@H]([C@H]2O[C@H](SC)[C@H](O)[C@@H](O)[C@H]2O)[C@H](C)Cl)N(C)C1 | Streptococcus pyogenes | – | – | – | – | MIC90 | 0.125 µg/mL (≈ 0.294 µM)
CNC(=O)c1ccc(Nc2ncc(C(F)(F)F)c(NCc3nccnc3N(C)S(C)(=O)=O)n2)cc1 | mouse hepatitis virus | viral replication | nanoluciferase reporter | 1 µM | – | inhibition | 19%
C=C(C)[C@@H]1CC[C@]2(C(=O)O)CC[C@]3(C)[C@H](CC[C@@H]4[C@@]5(C)CC[C@H](O)C(C)(C)[C@@H]5CC[C@]43C)[C@@H]12 | human coronavirus OC43 | virus-induced cell killing | MRC-5 | screen | – | maximum inhibition | 21.3%
OC[C@H]1O[C@@H](n2ccc3c(SCc4ccc(Cl)c(Cl)c4)ncnc32)[C@H](O)[C@@H]1O | Toxoplasma gondii | [3H]uracil incorporation | human fibroblasts, RH wild type | 50 µM | – | survival | 3.3%
COc1cc2ccc3oc([N+](=O)[O-])cc3c2cc1OC | Mycobacteroides abscessus | REMA | ATCC 19977 | – | – | MIC90 | > 32 µg/mL
OC[C@H]1O[C@@H](n2ccc3c(SCc4ccc(F)cc4F)ncnc32)[C@H](O)[C@@H]1O | Toxoplasma gondii | [3H]uracil incorporation | human fibroblasts, RH wild type | 5 µM | – | survival | 76.1%
OB(O)c1csc2ccccc12 | Staphylococcus aureus | – | USA300 wild type | 10 µM | relative to: untreated | growth relative to untreated | 59.9% and 71.4% and 73.6% and 71% and 76.4%
CN1CC[C@@]2(C)c3cc(OC(=O)Nc4ccccc4)ccc3N(C)[C@@H]12 | Toxoplasma gondii | parasite growth | HFF, bradyzoite, alkaline-induced | – | – | EC50 | 38.2 µM
COC(=O)N[C@H](C(=O)N1CCC[C@H]1c1ncc(-c2ccc(-c3ccc(-c4cnc([C@@H]5CCCN5C(=O)[C@@H](NC(=O)OC)C(C)C)[nH]4)cc3)cc2)[nH]1)C(C)C | Hepatitis C virus | – | replicon cells, genotype 1a | 90% effect level, together with: NS3 inhibitor, ratio 2.5:1 | – | combination index | 1.09
Cn1c(=O)ccc2ccc(F)c(CCNC[C@H]3CN(c4cnc5c(n4)NC(=O)CO5)C(=O)O3)c21 | Fusobacterium spp. | – | – | – | – | MIC90 | < 0.015 µg/mL
CN1C(=O)[C@@H](N2CCc3cn(Cc4ccccc4)nc3C2=O)COc2ccccc21 | mouse hepatitis virus | viral replication | nanoluciferase reporter | 1 µM | – | inhibition | -1%

SMILES | organism | test | test system | setting | scale | endpoint | value
OC[C@H]1O[C@@H](n2ccc3c(SCc4ccc(Cl)cc4Cl)ncnc32)[C@H](O)[C@@H]1O | Toxoplasma gondii | [3H]uracil incorporation | human fibroblasts, RH wild type | 50 µM | – | survival | 3.5%
Fc1ccc(C(OCCN2CCN(CCCc3ccccc3)CC2)c2ccc(F)cc2)cc1 | Toxoplasma gondii | parasite growth | HFF, bradyzoite, alkaline-induced | – | – | EC90 | 49700 µM
CC[C@H](C)[C@H](NC(=O)[C@H](CCCCN)NC(=O)[C@H](CCCCN)NC(=O)[C@H](Cc1ccccc1)NC(=O)[C@@H](NC(=O)[C@@H](NC(=O)[C@H](CCCNC(=N)N)NC(=O)[C@H](Cc1ccccc1)NC(=O)[C@@H](NC(=O)[C@H](CCCCN)NC(=O)[C@H](CCCCN)NC(=O)[C@@H](N)CCSC)[C@@H](C)CC)C(C)C)[C@@H](C)CC)C(=O)N[C@@H](CC(C)C)C(=O)N[C@@H](CCCCN)C(=O)N[C@@H](CCCNC(=N)N)C(=O)N[C@@H](CC(C)C)C(=O)N[C@H](C(=O)N[C@H](C(=O)O)C(C)C)[C@@H](C)CC | Staphylococcus aureus | broth microdilution | MRSA GU-1 | – | – | MBC | 8 µg/mL (≈ 3.52 µM)
CN([C@@H](Cc1ccc(OS(=O)(=O)c2cccc3cnccc23)cc1)C(=O)N1CCN(c2ccccc2)CC1)S(=O)(=O)c1cccc2cnccc12 | mouse hepatitis virus | viral replication | nanoluciferase reporter | 1 µM | – | inhibition | 28%
C[C@H]1CCC/C=C/[C@@H]2C[C@H](O)C[C@H]2[C@H](O)/C=C/C(=O)O1 | Toxoplasma gondii | parasite growth, luciferase reporter | HFF, tachyzoite | 72 h | – | EC90 | 0.073 µM
COc1cc(Nc2nc(C)cc(-c3cnn4nc(OC)ccc34)n2)cc(C(F)(F)F)c1 | mouse hepatitis virus | viral replication | nanoluciferase reporter | 1 µM | – | inhibition | 1%
COc1cc2c3c(c1OC)-c1ccccc1C[C@H]3N(C)CC2 | Toxoplasma gondii | parasite growth | HFF, bradyzoite, glutamine-induced | – | – | EC90 | 21.7 µM
COc1ccc([C@@]23Oc4cc(OC)cc(OC)c4[C@@]24N=C(C)N[C@@]4(O)[C@H](C(=O)N(C)OC)[C@H]3c2ccccc2)cc1 | Hepatitis E virus | viral replication | HepG2 HEV-3 replicon, genotype 3 | 24 h, racemate | – | EC50 | 0.001 µM
COc1ncc(-c2ccc3nccc(-c4ccnnc4)c3c2)cc1NS(=O)(=O)c1ccc(F)cc1F | human coronavirus OC43 | virus-induced cell killing | MRC-5 | screen | – | maximum inhibition | 2.93%
CC[C@H](C)[C@H](NC(=O)[C@H](C)NC(=O)[C@H](CCCCN)NC(=O)[C@H](CC(C)C)NC(=O)[C@H](C)NC(=O)[C@@H](NC(=O)[C@H](Cc1c[nH]cn1)NC(=O)[C@H](CC(C)C)NC(=O)[C@@H](NC(=O)[C@@H](NC(=O)[C@H](CCCCN)NC(=O)[C@H](C)NC(=O)[C@H](C)NC(=O)[C@H](CO)NC(=O)[C@H](CCCCN)NC(=O)[C@H](Cc1ccccc1)NC(=O)[C@@H](NC(=O)[C@H](CCCCN)NC(=O)[C@H](CC(C)C)NC(=O)[C@H](Cc1ccccc1)NC(=O)[C@H](CO)NC(=O)[C@H](CCCCN)NC(=O)[C@H](Cc1c[nH]c2ccccc12)NC(=O)[C@H](CCCCN)NC(C)=O)[C@@H](C)O)[C@@H](C)O)C(C)C)[C@@H](C)O)C(=O)N[C@@H](CO)C(=O)N[C@@H](CO)C(N)=O | Klebsiella pneumoniae | – | ESBL ATCC 700603 | range | – | MBC | 8 µg/mL (≈ 2.73 µM)
CS(=O)(=O)CCCn1c(Cn2c(=O)n(CC(F)(F)F)c3ccncc32)cc2cc(Cl)ccc21 | respiratory syncytial virus | RT-qPCR | hospitalized infants 1-24 months, nasal swab | oral, 6, 4.5 or 3 mg/kg daily, day 7, mid dose by age cohort | relative to: baseline | LS mean viral load change | -4.14 log10 copies/mL
O=C1Nc2ccc(I)cc2/C1=C/c1cc(Br)c(O)c(Br)c1 | mouse hepatitis virus | viral replication | nanoluciferase reporter | 1 µM | – | inhibition | 35%
N=C(N)NCCC[C@H](NC(=O)CN)C(=O)N[C@@H](Cc1c[nH]c2ccccc12)C(=O)N[C@@H](CCCNC(=N)N)C(=O)N[C@@H](Cc1c[nH]c2ccccc12)C(=O)N[C@@H](Cc1c[nH]c2ccccc12)C(=O)N[C@@H](Cc1c[nH]c2ccccc12)C(=O)N[C@@H](CCCNC(=N)N)C(=O)N[C@@H](Cc1c[nH]c2ccccc12)C(=O)N[C@@H](CCCNC(=N)N)C(=O)N[C@@H](Cc1ccccc1)C(N)=O | Candida albicans | broth microdilution | CGMCC 2.209, RPMI 1640-MOPS | 48 h, 30 °C, together with: CaCl2 2 mM | – | MIC | 16 µM (≈ 28.4 µg/mL)
O=C1[C@H](CC[C@H](O)c2ccc(F)cc2)[C@@H](c2ccc(O)cc2)N1c1ccc(F)cc1 | human coronavirus OC43 | virus-induced cell killing | MRC-5 | maximum over 10 doses | – | maximum inhibition | 0.482%
O=C1NC(=O)N(CCc2ccc(F)cc2)C(=O)/C1=C/C=C/c1ccccc1 | Mus musculus | gene silencing, high-content imaging | LDR reporter GFP cells | retest run 1 | – | maximal activity | 49%
Nc1ncnc2c1ncn2[C@@H]1O[C@@H]2COP(=O)(O)O[C@H]3[C@@H](O)[C@H](n4cnc5c(=O)[nH]cnc54)O[C@@H]3COP(=O)(O)O[C@H]2[C@H]1O | West Nile virus | RNA sequencing Reactome analysis, measured: Mitotic Spindle Checkpoint (R-HSA-69618) | HFF-1 | concentration not given, upregulated pathways, together with: West Nile virus infection | relative to: WNV-infected without compound | fold enrichment | 4.5
O=[N+]([O-])c1cc2cc3ccc4oc([N+](=O)[O-])cc4c3cc2o1 | Mycobacteroides abscessus | REMA | ATCC 19977 | – | – | MIC90 | 32 µg/mL (≈ 107 µM)
CC(=O)N1CCN(c2ccc(OCC3COC(Cn4ccnc4)(c4ccc(Cl)cc4Cl)O3)cc2)CC1 (centres unmarked) | Candida albicans | broth microdilution | 56452, RPMI 1640-MOPS | 48 h, 30 °C | – | MIC | 64 µM (≈ 34 µg/mL)
CCCCCC[C@H]1C(=O)O[C@H](C)[C@H](NC(=O)c2cccc(NC=O)c2O)C(=O)O[C@@H](C)[C@@H]1OC(=O)CC(C)C | human coronavirus OC43 | virus-induced cell killing | MRC-5 | screen | – | maximum inhibition | 5.63%

For quick reference, copied from above:
SMILES | organism | test | test system | setting | scale | endpoint | value
COc1ccc([C@@]23Oc4cc(OC)cc(OC)c4[C@@]24N=C(C)N[C@@]4(O)[C@H](C(=O)N(C)OC)[C@H]3c2ccccc2)cc1 | Hepatitis E virus | viral replication | HepG2 HEV-3 replicon, genotype 3 | 24 h, racemate | – | EC50 | 0.001 µM
COc1ncc(-c2ccc3nccc(-c4ccnnc4)c3c2)cc1NS(=O)(=O)c1ccc(F)cc1F | human coronavirus OC43 | virus-induced cell killing | MRC-5 | screen | – | maximum inhibition | 2.93%
